Literature values as cited in several papers.
“And” joins repeats or separate records; there may be more than shown. In brackets after ≈: the same amount, converted by molar mass.
Sequence of UniProt Q9BXA7 (whole entry, looked up): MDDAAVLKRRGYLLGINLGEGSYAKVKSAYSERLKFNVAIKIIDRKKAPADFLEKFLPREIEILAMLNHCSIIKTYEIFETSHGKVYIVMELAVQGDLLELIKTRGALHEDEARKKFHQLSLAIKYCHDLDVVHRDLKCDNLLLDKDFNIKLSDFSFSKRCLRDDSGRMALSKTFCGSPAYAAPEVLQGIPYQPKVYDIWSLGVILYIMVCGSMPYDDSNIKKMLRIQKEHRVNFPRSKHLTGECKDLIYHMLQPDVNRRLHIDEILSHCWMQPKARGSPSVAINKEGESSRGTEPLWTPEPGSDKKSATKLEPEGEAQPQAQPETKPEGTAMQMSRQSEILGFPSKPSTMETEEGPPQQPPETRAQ

With `Cc1cc(NC(=O)c2cccc(NC(=O)/C=C/CN(C)C)c2)ccc1Nc1nccc(-c2cccnc2)n1` the remaining activity was 0% (JNK3; 1 µM; relative to: control).
`CC(C)Oc1ccc(-c2c[nH]cc2CN(C)CCN)cc1`: activity “inactive” (PRMT7; enzyme activity, inhibitor; concentration not given).
`[Ca+2]`: “K1/2 for Ca2+” roughly 50 nM (rod CNG channel; cGMP-gated current; intact rod outer segments; with: fixed cGMP).
The selectivity ratio of `COc1ccc(CNc2c(CO)cnc3c(C4CC4)cc(C#N)cc23)cc1Cl` is reported as greater than 10 (PDE4; relative to: IC50 PDE4 over PDE5).
The EC50 of `COc1ccccc1Oc1cccc(CN2CCC(O)(c3ccccc3C(=O)O)CC2)c1` is reported as 0.047 µM (human CCR8 K195A mutant (TM5); IP accumulation, agonist).
For `N=C(NCCCCC(N)C(N)=O)NCCCSC[C@H]1O[C@@H](n2cnc3c(N)ncnc32)[C@H](O)[C@@H]1O` (stereo partly drawn), the selectivity ratio was no less than 33 fold (PRMT1; enzyme activity, inhibitor; relative to: G9a IC50 over PRMT1 IC50).
`Oc1cc(O)cc(/C=C/c2ccc(O)c(O)c2)c1` gave an activation of no more than 2.5 fold (SIRT5; deacetylase activity, activator, fluorogenic peptide substrate; concentration not given; relative to: untreated).
The EC50 of `COc1ccccc1Oc1cccc(CN2CCC3(CC2)C(=O)NCN3CCc2ccccc2)c1` is reported as 0.042 µM (human CCR8 Y114A mutant (TM3); IP accumulation, agonist).
The IC50 of `O=C(Nc1cccc2cnccc12)NC1CCc2cc(Br)ccc2C1Cc1ccccc1` (stereo not drawn) is reported as 0.017 µM (TRPV1; calcium flux, antagonist; HEK293; with: capsaicin).
The inhibition of `Oc1c2ccccc2c2c3c(cccc13)N=N2` is reported as -17% (CSNK1G3; kinase activity, inhibitor; 0.5 µM).
For `CCCCC/C=C\C/C=C\C/C=C\C/C=C\CCCC(=O)O`, the kcat was 0.00125 s⁻¹ (CYP4F3A (human); substrate; yeast microsomes).
With `Cc1ccc(Nc2ncnc3sc(Nc4c(Cl)cccc4Cl)nc23)cc1` the IC50 was 0.033 µM (TRPV1; calcium flux, antagonist; HEK293; with: capsaicin).
With `CCN(CC)CCCCNc1ncc2cc(-c3cc(OC)cc(OC)c3)c(NC(=O)NC(C)(C)C)nc2n1` the IC50 was greater than 1 µM (PDGFRα; inhibitor).
For `CO[C@H]1/C=C/O[C@@]2(C)Oc3c(C)c(O)c4c(O)c(c(/C=N/N5CCN(C)CC5)c(O)c4c3C2=O)NC(=O)/C(C)=C\C=C\[C@H](C)[C@H](O)[C@@H](C)[C@@H](O)[C@@H](C)[C@H](OC(C)=O)[C@@H]1C`, the kcat was 0.164 s⁻¹ (AADAC; optimised model value).
The inhibition of `C[S+]([O-])c1ccc(-c2nc(-c3ccc(F)cc3)c(-c3ccncc3)[nH]2)cc1` (stereo not drawn) is reported as -3.2% (CSNK1G3; kinase activity, inhibitor; 0.5 µM).
`CCCCCCCC(=O)CCc1ccc(O)c(OC)c1`: “maximal SERCA2a activity increase” 25 to 43% (SERCA2a; activator; concentration not given; relative to: control).
The inhibition of `O=C1NC(=O)c2c1c1c3ccccc3[nH]c1n1cncc21` is reported as 13% (CSNK1G3; kinase activity, inhibitor; 0.5 µM).
`CC(=O)N1c2ccc(-c3ccc(C(=O)O)cc3)cc2[C@H](Nc2ccc(Cl)cc2)C[C@@H]1C` has a selectivity ratio of roughly 10 fold (human BRD4; relative to: BD2 over BD1).
For `O=C(Nc1nc2ccccc2[nH]1)c1ccccc1`, the response was 62% (TNFSF10; 5 µM, PubChem AID 1443).
The inhibition of `CC(C)(C)n1nc(Cc2cccc3ccccc23)c2c(N)ncnc21` is reported as -1% (CSNK1G3; kinase activity, inhibitor; 0.5 µM).
The MIC of `CC1(C)S[C@@H]2[C@H](NC(=O)[C@H](N)c3ccccc3)C(=O)N2[C@H]1C(=O)O` is reported as greater than 16 µg/mL (Escherichia coli; clinical isolate RKI-No_524/16).
The IC50 of `O=C(NCc1ccc(Cl)c(Cl)c1)Nc1cccc2ccc(O)cc12` is reported as 0.015 µM (TRPV1; calcium flux, antagonist; HEK293; with: capsaicin).
With `CC(C)(O)c1cnc2ncc(-c3ccc(F)c(-c4c(F)cccc4C#N)c3)n2n1` the receptor occupancy was 61% (rat GABAA benzodiazepine site; rat; oral, 0.3 mg/kg).
`Clc1ccc(C(c2c[nH]c3ccccc23)c2c[nH]c3ccccc23)cc1` has an active concentration of 7.5 µM and 15 µM (NR4A2 (Nurr1); agonist).
With `COc1cc(Nc2c(C#N)cnc3cc(OCCCN4CCN(C)CC4)c(OC)cc23)c(Cl)cc1Cl` the inhibition was 2% (CSNK1G3; kinase activity, inhibitor; 0.5 µM).
With `COc1ccccc1Oc1cccc(CN2CCC(NC(=O)C3CC(=O)Nc4ccccc43)CC2)c1` (stereo not drawn) the EC50 was 0.199 µM (human CCR8 Y42A mutant (TM1); IP accumulation, agonist).
`CC(C)(C)c1ccc(CCNC(=O)Nc2cccc3cnccc23)cc1` gave an IC50 of 0.003 µM (TRPV1; calcium flux, antagonist; HEK293; with: capsaicin).
`Oc1ccc(-c2nc(-c3ccncc3)c(-c3ccc(F)cc3)[nH]2)cc1` has an inhibition of 8% (CSNK1G2; kinase activity, inhibitor; 0.5 µM).
Under inhibition, `Cc1cccc(-c2[nH]c(CNc3ccccc3F)nc2-c2ccc3ncnn3c2)n1` is recorded as “no inhibition” (NTCP; transport activity, inhibitor; up to 100 µM).
`Cc1nc(Nc2ccc(C(F)(F)F)c(Cl)c2)c2nc(Nc3c(Cl)cccc3Cl)sc2n1` gave an IC50 of 0.003 µM (TRPV1; calcium flux, antagonist; HEK293; with: capsaicin).
With `COc1ccc2nc([S@@+]([O-])Cc3ncc(C)c(OC)c3C)[nH]c2c1` the KI was 0.3 µM (CYP2C19; mechanism-based inhibitor).
`CO[C@H]1O[C@H](COS(=O)(=O)O)[C@@H](O[C@@H]2O[C@@H](C(=O)O)[C@@H](O[C@H]3O[C@H](COS(=O)(=O)O)[C@@H](O[C@@H]4O[C@H](C(=O)O)[C@@H](O[C@H]5O[C@H](COS(=O)(=O)O)[C@@H](O)[C@H](O)[C@H]5NS(=O)(=O)O)[C@H](O)[C@H]4O)[C@H](OS(=O)(=O)O)[C@H]3NS(=O)(=O)O)[C@H](O)[C@H]2OS(=O)(=O)O)[C@H](O)[C@H]1NS(=O)(=O)O` gave an association constant of 280000 M⁻¹ (CCL7; binding, ITC).
`Cc1nc2c(Cl)cccn2c1NC(=O)c1ccc(-c2ccc(N(C)C)cc2)o1` has an EC50 of 0.09 µM (NR4A2 (Nurr1); agonist, cell-based).
The inhibition ratio of `CCc1ccc(NC(=O)Nc2c[nH]c3ccccc23)cc1` is reported as 8 (human STING HAQ allele; relative to: HAQ over wild type).
`Nc1cc(C(F)(F)F)c(-c2nc(N3CCOCC3)nc(N3CCOCC3)n2)cn1` has a remaining activity of 90% (TSSK1B (Homo sapiens, UniProt Q9BXA7); enzyme activity; 10 µM; relative to: untreated).
The IC50 of `CC(C)(C)CCc1nc(C(F)(F)F)ccc1CNC(=O)Nc1cccc2[nH]ncc12` is reported as 0.005 µM (TRPV1; calcium flux, antagonist; HEK293; with: capsaicin).
The MIC of `CNC(C)C1CCC(N)C(OC2C(N)CC(N)C(OC3OCC(C)(O)C(NC)C3O)C2O)O1` (stereo not drawn) is reported as 2 µg/mL (≈ 4.19 µM) (Escherichia coli; clinical isolate RKI-No_314/16).
`COc1ccc2c(c1)CCC(NC(=O)Nc1cccc3cnccc13)C2Cc1cccc(Cl)c1` (stereo not drawn) has an IC50 of 0.013 µM (TRPV1; calcium flux, antagonist; HEK293; with: capsaicin).
For `CC[C@H](C)C(=O)O[C@H]1C[C@H](O)C=C2C=C[C@H](C)[C@H](CC[C@@H](O)C[C@@H](O)CC(=O)O)[C@H]21`, activity read “inactive” (NR4A2 (Nurr1); cellular; concentration not given).
The IC50 of `CC(C)(C)c1ccc(NC(=O)c2ccc(-c3ncccc3C#N)cc2)cc1` is reported as 0.03 µM (TRPV1; calcium flux, antagonist; HEK293; with: capsaicin).
`CCCCCCCC(=O)c1cc(OC)c(OC)c(OC)c1CC(=O)OCC` — result for activity: “inactive” (NR4A2 (Nurr1); cellular; concentration not given).
`CC(C)n1cnc2c(Nc3cccc(Cl)c3)nc(NCCO)nc21` has an inhibition of 93% (CSNK1G3; kinase activity, inhibitor; 0.5 µM).
The EC50 of `CCNS(=O)(=O)c1ccc(OC)cc1C1(O)CCN(Cc2cccc(Oc3ccccc3OC)c2)CC1` is reported as 0.18 µM (human CCR8 Q91W mutant (TM2); IP accumulation, agonist).
For `CC(C)[C@H](CO)Nc1nc(Nc2cc(N)cc(Cl)c2)c2ncn(C(C)C)c2n1`, the inhibition was 87% (CSNK1G3; kinase activity, inhibitor; 0.5 µM).
With `COc1ccccc1Oc1cccc(CN2CCC(NC(=O)C(CCN3CCCC3)c3ccccc3)CC2)c1` (stereo not drawn) the EC50 was greater than 10 µM (human CCR8; IP accumulation, agonist).
